Published values pooled from the literature.
Each line is one published result; not all experiments were run side by side. Values after ≈ are worked out from the molar mass of the structure shown.

| Structure (SMILES) | organism | test | system | setting | how to read | endpoint | result |
| --- | --- | --- | --- | --- | --- | --- | --- |
| COC(=O)c1ncn(C2CC(O)C(CO)O2)c1C(=O)OC (stereo not shown) | Severe acute respiratory syndrome coronavirus | viral replication | Vero | 48 h |  | IC50 | 18 µg/mL |
| [O-][N+]1=C(c2ccc(Cl)cc2)C2=NCCCCN2c2ccccc21 | Clostridium perfringens |  |  |  |  | MIC | 4 to 64 µg/mL (≈ 12.3 to 196 µM) |
| COC(=O)c1ncn(CCOC(C)=O)c1C(=O)OC | Zaire ebolavirus | viral replication, inhibitor | Vero | 72 h |  | IC50 | 30 µg/mL |
| CC[C@@H](C)[C@@H](NC(=O)[C@@H](CCCCN)NC(=O)[C@@H](CCCCN)NC(=O)[C@@H](CC(C)C)NC(=O)[C@@H](Cc1c[nH]c2ccccc12)NC(=O)CN)C(=O)NCC(=O)N[C@H](CCCCN)C(=O)N[C@H](CCCCN)C(=O)N[C@@H](C(=O)N[C@H](CCC(=O)O)C(=O)N[C@H](CCCNC(=N)N)C(=O)N[C@@H](C(=O)NCC(=O)N[C@H](CCC(N)=O)C(=O)N[C@H](Cc1c[nH]cn1)C(=O)N[C@@H](C(=O)N[C@H](CCCNC(=N)N)C(=O)N[C@H](CC(=O)O)C(=O)N[C@H](C)C(=O)N[C@@H](C(=O)N[C@@H](C(=O)N[C@H](CCC(N)=O)C(=O)N[C@@H](C(=O)N[C@@H](C(=O)NCC(=O)N[C@@H](C(=O)N[C@H](C)C(=O)N[C@H](CCC(N)=O)C(=O)N[C@H](CCC(N)=O)C(=O)N[C@H](C)C(=O)N[C@H](C)C(=O)N[C@H](CC(N)=O)C(=O)N[C@@H](C(=O)N[C@H](C)C(=O)N[C@H](C)C(=O)N[C@@H](C(=O)N[C@H](CC(C)C)C(=O)N[C@H](CCCCN)C(N)=O)[C@H](C)O)C(C)C)C(C)C)[C@H](C)CC)[C@H](C)O)[C@H](C)CC)[C@H](C)O)[C@H](C)O)C(C)C)[C@H](C)CC | Escherichia coli |  | isolate RKI 6 A-6, CAMHB |  |  | MIC | > 1020 µg/mL |
| Nc1nc(Nc2ccc(Cl)cc2)nn1S(=O)(=O)c1ccc2ccccc2c1 | Powassan virus | viral replication | BHK-21 |  |  | EC50 | > 7.9 µM |
| Cc1ccc(N2CC(N3CCC(C)(O)CC3)C2)cc1C(=O)NC1(c2ccc3c4c(cccc24)CC3)CC1 | SARS-CoV-2 | viral replication | Vero C1008, XBB.1 | 0.1543 µM |  | inhibition | 40% |
| O=S(=O)(Nc1ccccc1)c1ccc(N=C=S)cc1 | Escherichia coli |  | HeLa, EHEC | 5 nM |  | attaching and effacing lesions | decreased |
| [O-][N+]1=C(c2ccccc2)C2=NCCN2c2ccccc21 | Clostridium butyricum |  |  |  |  | MIC | ≤ 0.06 µg/mL |
| N#Cc1ncn(COCCBr)c1C#N | Mammarenavirus lassaense | viral replication | Vero | 48 h |  | IC90 | 29 µg/mL (≈ 114 µM) |
| O=[N+]([O-])c1ccc(-n2nc(-c3ccccc3)cc2-c2ccc(F)cc2)c([N+](=O)[O-])c1 | Japanese encephalitis virus | western blot | Neuro2a | 15 µM, 72 h, post-treatment |  | NS1 protein reduction | ~78% |
| O=S(=O)(O)c1c2ccccc2c(-c2c3nc(c(-c4c5ccccc5c(S(=O)(=O)O)c5ccccc45)c4ccc([nH]4)c(-c4c5ccccc5c(S(=O)(=O)O)c5ccccc45)c4nc(c(-c5c6ccccc6c(S(=O)(=O)O)c6ccccc56)c5ccc2[nH]5)C=C4)C=C3)c2ccccc12 | vaccinia virus |  | CV-1, WR | 25 µg/mL, 16 h |  | viral titre | 3e+06 PFU/mL |
| Cn1cnc(Cn2c(=O)[nH]/c(=N\c3cc4cn(C)nc4cc3Cl)n(Cc3cc(F)c(F)cc3F)c2=O)n1 | feline infectious peritonitis virus | viral replication, qRT-PCR | CRFK | 48 h |  | IC50 | 47.8 µM |
| C[N+]1=C2C(c3ccccc3)=[N+]([O-])c3ccccc3N2CCC1 | Clostridium perfringens | microbial growth |  |  |  | MIC50 | 32 µg/mL |
| Cn1nc(-c2ccc(C(F)(F)F)cc2)nc2c(=O)n(C)c(=O)nc1-2 | SARS-CoV-2 USA_WA1/2020 |  | Vero E6 | concentration not given, 72 h |  | inhibition of cytopathic effect | 51.4% |
| CN[C@@H]1[C@H](O)[C@H](NC)[C@H]2O[C@]3(O)[C@H](O[C@@H]2[C@H]1O)O[C@H](C)C[C@@]3(O)CNCc1ccc(F)cc1 | Legionella pneumophila |  | ATCC 33153 | 40 µg per disc, 48 h |  | inhibition zone diameter | 32 to 33 mm |
| O=C(C=Cc1ccc(O)c(O)c1)OC1CC(O)(C(=O)O)CC(OC(=O)C=Cc2ccc(O)c(O)c2)C1O (stereo not shown) | Severe acute respiratory syndrome coronavirus 2 | cytopathic effect | Vero C1008 | 1.562 µM |  | inhibition | 0% |
| [O-][N+]1=C(Cc2ccccc2)C2=NCCCN2c2ccccc21 | Clostridium perfringens |  |  |  |  | MIC90 | > 32 µg/mL |
| N#Cc1ncn(COCCO)c1C#N | Severe acute respiratory syndrome coronavirus | viral replication | Vero | 48 h |  | IC50 | 48 µg/mL |
| Cc1ccc(NS(=O)(=O)c2c(C(=O)N3CCCCCC3)c(C)n(C)c2C)c(Cl)c1 | Monkeypox virus |  | Vero C1008, wild type | 10 µM, 72 h | baseline: untreated | relative infection | 0% |
| CC(C)CC(C(=O)N1CC2(CC1C#N)C(=O)Nc1ccccc12)N(C)C(=O)c1cc2c(F)cc(F)c(F)c2[nH]1 (stereo not shown) | SARS-CoV-2 | viral replication, infectious virus | Vero E6 | 0.01111 µM |  | inhibition | 74.1% |
| CC(C)c1ccc2c(c1)CC[C@H]1[C@](C)(C(=O)OCC#CCN3CCCC3)CCC[C@]21C | SARS-CoV-2 pseudovirus |  | BHK-21-hACE2 | 20 µM |  | infected cells | decreased |
| CN[C@@H]1[C@H](O)[C@H](NC)[C@H]2O[C@]3(O)[C@H](O[C@@H]2[C@H]1O)O[C@H](C)C[C@H]3NC(=O)Cc1ccccc1 | Bacillus anthracis | microbial growth | STERNE34F2 |  |  | MIC | 100 µg/mL (≈ 221 µM) |
